Assay results collected from several papers.
Each line is one published result; not all experiments were run side by side.
Technique: steady-state kinetics
B1: Paox H64Q (Mus musculus, UniProt Q8C0L6); chain MAFPGPRVLVVGSGIAGLGAAQKLCSHRAAPHLRVLEATASAGGRIRSERCFGGVVELGAHWIQGPSQDNPVFQLAAEFGLLGEKELSEENQLVDTGGHVALPSMIWSSSGTSVSLELMTEMARLFYGLIERTREFLNESETPMASVGEFLKKEISQQVASWTEDDEDTRKRKLAILNTFFNIECCVSGTHSMDLVALAPFGEYTVLPGLDCILAGGYQGLTDRILASLPKDTVAFDKPVKTIHWNGSFQEAAFPGETFPVLVECEDGARLPAHHVIVTVPLGFLKEHQDTFFEPPLPAKKAEAIKKLGFGTNNKIFLEFEEPFWEPDCQFIQVVWEDTSPLQDTALSLQDTWFKKLIGFLVQPSFESSHVLCGFIAGLESEFMETLSDEEVLLSLTQVLRRVTGNPQLPAAKSVRRSQWHSAPYTRGSYSYVAVGSTGDDLDLMAQPLPEDGTGTQLQVLFAGEATHRTFYSTTHGALLSGWREADRLVSLWDSQVEQSRPRL
B2: enzyme (Clostridium autoethanogenum, UniProt A0ABM5NRF0); chain KGFAMLGINKLGWIEKKNPVPGPYDAIVHPLAVSPCTSDIHTVFEGALGNRENMILGHEAVGEIAEVGSEVKDFKVGDRVIVPCTTPDWRSLEVQAGFQQHSNGMLAGWKFSNFKDGVFADYFHVNDADMNLAILPDEIPLESAVMMTDMMTTGFHGAELADIKMGSSVVVIGIGAVGLMGIAGSKLRGAGRIIGVGSRPVCVETAKFYGATDIVNYKNGDIVEQIMDLTHGKGVDRVIMAGGGAETLAQAVTMVKPGGVISNINYHGSGDTLPIPRVQWGCGMAHKTIRGGLCPGGRLRMEMLRDLVLYKRVDLSKLVTHVFDGAENIEKALLLMKNKPKDLIKSVVTF
B3: MCAT R178Q (Homo sapiens, UniProt Q8IVS2); chain GQGSQVVGMGRGLLNYPRVRELYAAARRVLGYDLLELSLHGPQETLDRTVHCQPAIFVASLAAVEKLHHLQPSVIENCVAAAGFSVGEFAALVFAGAMEFAEGLYAVKIQAEAMQEASEAVPSGMLSVLGQPQSKFNFACLEAREHCKSLGIENPVCEVSNYLFPDCRVISGHQEALRFLQKNSSKFHFRRTRMLPVSGAFHTRLMEPAVEPLTQALKAVDIKKPLVSVYSNVHAHRYRHPGHIHKLLAQQLVSPVKWEQTMHAIYERKKGRGFPQTFEVGPGRQLGAILKSCNMQAWKSYSAVDVL
B4: protein (Danio rerio, UniProt A0EXC5); chain MTESELYSVHKGVFVPTHLHPAESLKYYEDFIFRPDDILIVTYPKSGTIWMQEIVPLVVSEGDLTLVLTVPNWDRVPWLEEHRAILLSLEQRASPRIFATHFHHQMMNPSYFKIEPRVLYVMRNPKDVFISSFHYYGMASFLVNPGTQDEFMEKFLNGNIMFGSWFDHVKGWLNAAEQEHILYISYEEMINDLRASVEKIATFLGKSLSSEVVEKIADHCVFKNMKQNKMSNLSLVPEEFMDQKKSEFLRKGIAGDWKNHFSAAQEERFNAVYDDKMKDVKFKFPWD
B5: protein (Adiantum capillus-veneris, UniProt A0A4Y6I289); chain MTDAVENKQVEFGALEVEGIKFAPSVAALGSTKQLVLGGAGFRGLEISGNLVKFTAIGIYVDEAIIPHLSPKLHGKSIEELCNNELLFEEVLAAPFEKLVRVVFLLPLTGPQYSEKVVERMGLLPNPGIKEESTKQFLEIFKPENFPPRTSLICSFTEEALKVAFMKTDDFPEDADAVIEDKWLARAFLASIIGKDGVSPLAKLSFAERMSRCL
B6: protein (Streptomyces coelicolor, UniProt P16544); chain MATQDSEVALVTGATSGIGLEIARRLGKEGLRVFVCARGEEGLRTTLKELREAGVEADGRTCDVRSVPEIEALVAAVVERYGPVDVLVNNAGRPGGGATAELADELWLDVVETNLTGVFRVTKQVLKAGGMLERGTGRIVNIASTGGKQGVVHAAPYSASKHGVVGFTKALGLELARTGITVNAVCPGFVETPMAASVREHYSDIWEVSTEEAFDRITARVPIGRYVQPSEVAEMVAYLIGPGAAAVTAQALNVCGGLGNY
B7: ybiA (Escherichia coli, UniProt P30176); chain MPVRAQRIQHVMQDTIINFYSTSDDYGDFSNFAAWPIKVDGKTWPTSEHYFQAQKFLDEKYREEIRRVSSPMVAARMGRDRSKPLRKNWESVKEQVMRKALRAKFEQHAELRALLLATAPAKLVEHTENDAYWGDGGHGKGKNRLGYLLMELREQLAIEK
UniProt Q497L9, sequence (whole entry, looked up): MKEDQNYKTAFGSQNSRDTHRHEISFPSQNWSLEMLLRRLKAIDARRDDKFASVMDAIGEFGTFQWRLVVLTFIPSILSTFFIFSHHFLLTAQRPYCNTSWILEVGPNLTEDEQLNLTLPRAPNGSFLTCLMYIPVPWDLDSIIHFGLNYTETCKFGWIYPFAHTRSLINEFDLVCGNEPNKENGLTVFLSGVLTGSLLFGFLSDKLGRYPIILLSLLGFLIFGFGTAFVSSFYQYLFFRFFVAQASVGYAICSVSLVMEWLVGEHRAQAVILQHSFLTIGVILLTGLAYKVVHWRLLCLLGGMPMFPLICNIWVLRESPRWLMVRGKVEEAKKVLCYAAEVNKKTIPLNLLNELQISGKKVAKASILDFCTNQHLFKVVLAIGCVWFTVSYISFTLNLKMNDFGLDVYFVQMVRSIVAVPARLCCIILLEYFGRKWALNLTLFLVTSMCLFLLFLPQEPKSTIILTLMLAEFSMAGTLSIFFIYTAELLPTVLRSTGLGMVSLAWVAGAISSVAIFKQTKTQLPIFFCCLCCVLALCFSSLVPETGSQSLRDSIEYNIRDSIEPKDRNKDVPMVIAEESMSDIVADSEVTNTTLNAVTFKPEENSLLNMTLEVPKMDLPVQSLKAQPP
UniProt O60656, sequence (whole entry, looked up): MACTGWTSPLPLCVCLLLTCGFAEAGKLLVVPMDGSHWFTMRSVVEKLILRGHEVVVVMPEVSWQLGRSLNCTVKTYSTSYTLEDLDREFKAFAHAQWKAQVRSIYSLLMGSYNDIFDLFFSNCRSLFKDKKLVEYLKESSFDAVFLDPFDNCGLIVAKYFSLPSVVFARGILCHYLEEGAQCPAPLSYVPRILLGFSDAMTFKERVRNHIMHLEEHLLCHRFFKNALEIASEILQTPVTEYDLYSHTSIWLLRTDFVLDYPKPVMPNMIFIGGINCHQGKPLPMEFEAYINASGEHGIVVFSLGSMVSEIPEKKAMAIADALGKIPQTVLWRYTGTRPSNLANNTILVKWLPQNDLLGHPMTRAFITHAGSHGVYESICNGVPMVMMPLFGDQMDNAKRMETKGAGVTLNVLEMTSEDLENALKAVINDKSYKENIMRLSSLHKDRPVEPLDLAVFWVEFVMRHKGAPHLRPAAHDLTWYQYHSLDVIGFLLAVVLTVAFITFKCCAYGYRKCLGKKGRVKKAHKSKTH
UniProt P0AEJ2, sequence (whole entry, looked up): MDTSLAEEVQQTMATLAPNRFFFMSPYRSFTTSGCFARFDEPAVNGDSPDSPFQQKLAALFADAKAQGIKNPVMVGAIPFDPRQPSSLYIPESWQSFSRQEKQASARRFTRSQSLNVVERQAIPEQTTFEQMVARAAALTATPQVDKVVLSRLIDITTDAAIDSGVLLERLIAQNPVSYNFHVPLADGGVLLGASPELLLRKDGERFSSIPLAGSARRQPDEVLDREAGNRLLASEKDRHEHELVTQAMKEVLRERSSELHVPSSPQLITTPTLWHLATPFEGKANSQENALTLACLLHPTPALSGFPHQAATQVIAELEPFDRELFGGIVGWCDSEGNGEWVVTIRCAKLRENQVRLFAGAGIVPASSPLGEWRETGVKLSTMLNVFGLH

`B1 (Paox H64Q)` has a Km of 130 µM (c1ccc(CNCCCCNCc2ccccc2)cc1; pH 8.6, 30 °C).
`B2 (enzyme)` has a Km of 1.7 µM (NC(=O)C1=CN([C@@H]2O[C@H](COP(=O)(O)OP(=O)(O)OC[C@H]3O[C@@H](n4cnc5c(N)ncnc54)[C@H](OP(=O)(O)O)[C@@H]3O)[C@@H](O)[C@H]2O)C=CC1; pH 7.5, 25 °C, cofactor varied).
The Km of `B3 (MCAT R178Q)` is reported as 9.1 µM (CC(=O)SCCNC(=O)CCNC(=O)[C@H](O)C(C)(C)COP(=O)(O)OP(=O)(O)OC[C@H]1O[C@@H](n2cnc3c(N)ncnc32)[C@H](O)[C@@H]1OP(=O)(O)O; pH 6.8, 20 °C, labelled substrate, with: holo-ACP 20 µM).
For `entC (Escherichia coli, UniProt P0AEJ2)`, the Km was 53 µM (C=C(O[C@@H]1C=C(C(=O)O)C=C[C@H]1O)C(=O)O; pH 8, 21 °C, apparent).
With `enzyme (UniProt A0A7J5BGR1)` the Km was 9.5 µM (C=CCc1ccc(O)c(OC)c1; pH 8, 25 °C).
`enzyme (Mus musculus, UniProt Q497L9)` has a Km of 0.923 µM (Cc1cc2nc3c(=O)[nH]c(=O)nc-3n(C[C@H](O)[C@H](O)[C@H](O)CO)c2cc1C; 37 °C, not purified).
For `B4 (protein)`, the Km was 7.15 µM (C[C@H](CCCC(CO)CO)[C@H]1CC[C@H]2[C@@H]3[C@H](O)C[C@@H]4C[C@H](O)CC[C@]4(C)[C@H]3C[C@H](O)[C@]12C; pH 7, 28 °C, substrate inhibition, with: PAPS 14 µM).
With `protein (Trichoderma virens, UniProt G9MQB8)` the Km was 2.4 µM (Nc1ccn([C@@H]2O[C@H](COP(=O)(O)OP(=O)(O)OP(=O)(O)O)[C@@H](O)[C@H]2O)c(=O)n1; pH 7.5, KCl 150 mM, with: SAM 1 mM, dithionite 5 mM).
`Gcs (Leishmania donovani, UniProt Q67BG3)` gave a Km of 6250 µM (Nc1ncnc2c1ncn2[C@@H]1O[C@H](COP(=O)(O)OP(=O)(O)OP(=O)(O)O)[C@@H](O)[C@H]1O; apparent, with: L-glutamate, L-cysteine, Mg2+).
The Km of `B5 (protein)` is reported as 61.4 µM (O=C(/C=C/c1ccc(O)cc1)c1ccc(O)cc1O).
The Km of `B6 (protein)` is reported as 6470 µM (O[C@@H]1CCCc2ccccc21; pH 7.4, phosphate 400 mM, NADPH 250 µM printed, with: NADP+, reverse reaction).
The Km of `UGT1A9 (Homo sapiens, UniProt O60656)` is reported as 0.67 µM (O=c1c(O)c(-c2ccccc2O)oc2ccccc12; pH 7.4, 37 °C).
`B7 (ybiA)` gave a Km of 5840 µM (Nc1c(N[C@@H]2O[C@H](COP(=O)(O)O)[C@@H](O)[C@H]2O)[nH]c(=O)[nH]c1=O; pH 8, 22 °C, substrate not purified).

A few entries again:
The Km of `B5 (protein)` is reported as 61.4 µM (O=C(/C=C/c1ccc(O)cc1)c1ccc(O)cc1O).
